Measurements of several laboratories.
Numbered parts are unrelated; each lists some results of a single study. Changes are numbered by the printed parent chain.

Study 1 — technique: protein-binding microarray; molecule type: double-stranded DNA, one strand shown; sample: in vitro; tested at: 2200 nM top; notes: 60-bp whole probe; with: salmon DNA 0.4 mg/ml; baseline: random background probes; reading: higher = stronger binding; all sequences stand within: GCCTAGCAC … GTCTTGATTCGCTTGACGCTGCTG
Target: Interferon regulatory factor 7, full length, phosphomimetic (IRF7, Homo sapiens, UniProt Q92985, residues 1-503, S471D/S472D/S475D/S476D/S477D/S483D/S484D/S487D)
Residues (chain): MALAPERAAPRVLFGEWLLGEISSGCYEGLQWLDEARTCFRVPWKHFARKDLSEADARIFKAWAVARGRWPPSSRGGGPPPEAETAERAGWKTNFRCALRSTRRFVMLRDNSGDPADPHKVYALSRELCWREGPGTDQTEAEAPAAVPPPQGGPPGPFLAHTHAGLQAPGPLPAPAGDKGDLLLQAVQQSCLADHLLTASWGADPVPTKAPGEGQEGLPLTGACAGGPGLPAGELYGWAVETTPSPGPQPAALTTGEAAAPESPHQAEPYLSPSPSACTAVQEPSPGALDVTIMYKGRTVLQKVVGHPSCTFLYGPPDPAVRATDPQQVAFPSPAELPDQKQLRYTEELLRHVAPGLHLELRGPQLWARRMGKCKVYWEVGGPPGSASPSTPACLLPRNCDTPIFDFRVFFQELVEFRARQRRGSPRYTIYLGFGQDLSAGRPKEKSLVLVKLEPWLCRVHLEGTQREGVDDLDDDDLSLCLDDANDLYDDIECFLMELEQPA
Strand	fitted relative affinity
TTAGATATCACTTTCGATTAGTGCTAG	7.74 z-score
GACCATTTCGGGTTTCGAGACGTGCTA	4.05 z-score
TAAGGTTTCCTACTGCTTTAGTGCTAG	0.902 z-score
GACGAACTGAGGCTCGAGACGTGCTAG	-0.228 z-score
CAGCCTTTGCCTCATCTTGCAGTGCTA	0.727 z-score
TCATGTTTCTAATATTCTACTGTGCTA	1.53 z-score
GACGATTTCGGGACTGGTGACGTGCTA	1.31 z-score
GACGGACTGCGTCTCCTGACGTGCTAG	0.0848 z-score
GACGGTCTCGGTTTCCGGACGTGCTAG	2.53 z-score
TTAGGTCTCCTAGTGCTTTAGTGCTAG	-0.363 z-score
GACGGCCTGCTTTTCCTGACGTGCTAG	0.477 z-score
GACGATCTCAGTCTGGAGACGTGCTAG	-0.222 z-score
TTGGGTTTCGGGTTTCGGTTAGTGCTA	9.34 z-score

Study 2 — technique: DHFR PCA, deep sequencing; sample: yeast; with: (+)-ABA 0.0091 µM; baseline: wild-type fitted maximum; reading: higher = stronger binding
Target: ABI1, truncated, D143A, DHFR fusion (Arabidopsis thaliana)
Notes: methotrexate growth selection, single substitutions
Starting sequence: PYL1, truncated, DHFR fusion (Arabidopsis thaliana); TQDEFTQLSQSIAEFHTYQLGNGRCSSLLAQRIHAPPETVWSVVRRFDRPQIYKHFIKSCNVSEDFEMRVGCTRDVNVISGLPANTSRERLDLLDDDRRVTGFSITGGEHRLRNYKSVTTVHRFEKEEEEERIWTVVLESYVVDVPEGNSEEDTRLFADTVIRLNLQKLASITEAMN
Substitution	relative binding score [%]
T154L	2.56
P50R	-1.29
T86A	6.86
E174C	-3.49
A30Y	10.6
H110D	49.6
I12C	-3.91
R132F	2.27
Y18D	-0.324
T17K	5.53
D48G	2.58
W41F	-5.11
T173G	0.172
I57G	-2.16
D75P	-3.71
A175R	22.4

Study 3 — technique: protein-binding microarray; molecule type: double-stranded DNA, one strand shown; sample: in vitro; tested at: 0.8 µM; notes: whole 60-bp probe, no competitor; reading: higher = stronger binding; all sequences stand within: … GTCTTGATTCGCTTGACGCTGCTG
Target: Centromere-binding protein 1, full length, N-terminal tag (CBF1, Saccharomyces cerevisiae, UniProt P17106, residues 1-351)
Chain of UniProt P17106 (whole entry, looked up): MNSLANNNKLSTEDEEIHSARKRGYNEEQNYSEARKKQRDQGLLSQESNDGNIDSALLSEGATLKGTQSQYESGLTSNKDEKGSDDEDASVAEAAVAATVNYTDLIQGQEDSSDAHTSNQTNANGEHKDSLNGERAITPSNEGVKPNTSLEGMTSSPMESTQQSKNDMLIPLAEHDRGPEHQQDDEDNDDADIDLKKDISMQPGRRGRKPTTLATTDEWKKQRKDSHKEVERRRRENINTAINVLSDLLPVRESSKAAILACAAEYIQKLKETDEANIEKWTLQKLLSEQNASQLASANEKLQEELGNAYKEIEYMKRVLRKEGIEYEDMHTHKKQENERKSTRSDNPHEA
Strand	fluorescence intensity
CTATATCCTGGGCTGCACGTGATAATATGTTACTTC	8490 a.u.
CTAGTTAGAGATAGTGATGTTAGAAGACTTACCTTC	485 a.u.
GAAATACCAGAGTTGCACGTTAGGCTGATAAATTAG	521 a.u.
GAACAAAAGGGGTGGCAACTGATGGAAAGACTTTAG	526 a.u.
GAAATACAATAATGGAAGGTGATGAAGCCGAAGTAG	591 a.u.
CTATCCTTCTGTTCTGATGTATTAAAAACTATTTTC	607 a.u.
GAAATTAATGTTTATTTCATGAGACTAGTCAAATAG	550 a.u.
CTAGCAGTAATTCTCCACATGGGCCCAGCCACTTTC	488 a.u.
CTAATTTCCCATAGTCTCATGAAAATTCCTGGCTTC	507 a.u.
GAAGCCTTAACTTCTGACGTGAAAAAAAAAAAATAG	603 a.u.
GAAGAAAATGTTGGTGATGCGCTTAGATTAAATTAG	564 a.u.
GAACATCAAATGGAAGACATCAGCAGTTACACTTAG	507 a.u.
GAACATAAAGAGCACGTGCGGGCGCGCTGGGTATAG	11900 a.u.
GAAAAAATAAAATAAATCGTGCGCCCATTATAATAG	512 a.u.
GAAAAGGGGCTTTCGAACGTGTGATAGAAAACTTAG	655 a.u.

Study 4 — technique: RNA Bind-n-Seq; molecule type: RNA; sample: in vitro; tested at: 1 µM; notes: whole 134-nt RNA, ends assumed; with: 150 mM KCl; baseline: input library; reading: higher = stronger binding
Target: Ras GTPase-activating protein-binding protein 1, RRM domain (G3BP1, Homo sapiens, UniProt Q13283)
Chain of UniProt Q13283 (whole entry, looked up): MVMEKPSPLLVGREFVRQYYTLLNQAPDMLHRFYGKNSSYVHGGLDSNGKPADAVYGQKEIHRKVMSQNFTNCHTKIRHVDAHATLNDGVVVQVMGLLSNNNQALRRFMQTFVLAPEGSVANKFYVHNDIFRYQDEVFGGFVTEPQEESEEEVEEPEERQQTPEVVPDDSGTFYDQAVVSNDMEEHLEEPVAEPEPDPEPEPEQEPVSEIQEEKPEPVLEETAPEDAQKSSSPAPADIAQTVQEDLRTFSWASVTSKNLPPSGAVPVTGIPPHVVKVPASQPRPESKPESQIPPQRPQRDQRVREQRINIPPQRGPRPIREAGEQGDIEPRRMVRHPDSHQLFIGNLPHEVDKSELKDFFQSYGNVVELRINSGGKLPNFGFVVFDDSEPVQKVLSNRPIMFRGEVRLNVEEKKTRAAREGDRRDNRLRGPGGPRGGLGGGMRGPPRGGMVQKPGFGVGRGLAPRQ
All sequences stand within: GGGAGUUCUACAGUCCGACGAUC … UGGAAUUCUCGGGUGUCAAGG
Strand	log2 enrichment
AGUCCUGUGCUACACAUCGUAUGUACCGAAUCGGGUUUGGGUUUGGGUUUUUUUGGGAAAGUAUUAUGUUACGCCGUUCGGAUCUGCACU	0.375
GUCCUGUGCUACACAUCGUAUGUACCGAAUCAAAUUUUUAAAUUUUUUUAAAUUUAAAAAAGUAUUAUGUUACGCCGUUCGGAUCUGCAC	-0.882
CAAGUCCUGUGCUACACAUCGUAUGUACCGAAUCGGAAAAAGGUGGAAAAAAAGGAAAGUAUUAUGUUACGCCGUUCGGAUCUGCACUUC	-0.134
GCAGGAAGUAAAAACAAAUGGAAAUGCUUCGGAUAGUGGCAGGGAAAGGGGUUGCUAAGGAAAGGGUGGGAUGGGAGUGGGUAAAGAGUU	1.32
UCAAGUCCUGUGCUACACAUCGUAUGUACCGAAUCGGGAAAGGGGAAAGGAAAGGAAAGUAUUAUGUUACGCCGUUCGGAUCUGCACUUC	-0.276
UGGCCCUGGUGGCAUGCGGGGAGGAAGAGGUGGCCUCAUGGAUCGUGGUGGUCCCGGUGGAAUGUUCAGAGGUGGCCGUGGUGGAGACAU	1.9
GCAGGAAGUAAAAACAAAUGGAAAUGCUUCGGAUAGUGGCAGGGGUGUGGGUUGCUAAGGAAAGGGUGGGAUGGGAGUGGGUAAAGAGUU	0.857
GUCCUGUGCUACACAUCGUAUGUACCGAAUCAAACCCCCCCAAACCCCCAAACCCAAAAAAGUAUUAUGUUACGCCGUUCGGAUCUGCAC	-0.154
ACCAUGCAGGUGGGCAUCUUUGGGAAGUGGGGCAAGGGGGUGAUAGGGAGGGGGGUAACACUUUGGGAACAGGUGGUCCCAGGUCGUUUC	1.12
UGCCUGCUCCGGGCCCCGUGCUGGCGCCUACGCACCUGCAGACAGAGCUGGUGCUGAGGUGCCAGAAGGAGACCGACUGUGACCUCUGUC	-0.625
UCCUCAAGUCCUGUGCUACACAUCGUAUGUACCGAAUCGGAGGAGGUUUGGAAAGUAUUAUGUUACGCCGUUCGGAUCUGCACUUCCAGC	-0.292
UGGGAGGUGGAUUUUGUUUAUUUGUUUAGCUCAUUUCCAGGGGUGGGAAUUUUUUUUUAAUAUGUGUCAUGAAUAAAGUUGUUUUUGAAA	1.35
CUGUGCUACACAUCGUAUGUACCGAAUCGGAAAAAAAGGGGAAAAAAAGGGAAAAAAAGGGGAAAGUAUUAUGUUACGCCGUUCGGAUCU	0.0525
GUCCUGUGCUACACAUCGUAUGUACCGAAUCGGGCCCCCGGGCCCCCGGGCCCCCGGGGAAAGUAUUAUGUUACGCCGUUCGGAUCUGCA	-0.658

Study 5 — technique: RNA Bind-n-Seq; molecule type: RNA; sample: in vitro; tested at: 365 nM; baseline: no-protein control; reading: higher = stronger binding
Target: RNA binding protein fox-1 homolog 2, RRM domain, GST-SBP tag (RBFOX2, Homo sapiens, UniProt O43251-10, residues 100-194)
Notes: natural RNA segment, single round, ends assumed
All sequences stand within: GGGAGUUCUACAGUCCGACGAUC … UGGAAUUCUCGGGUGCCAA
Construct (chain): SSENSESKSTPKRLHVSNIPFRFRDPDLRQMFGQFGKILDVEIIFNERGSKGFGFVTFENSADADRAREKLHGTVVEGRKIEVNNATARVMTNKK
Strand	RBNS enrichment (R)
UGUGUCAAUGAAUGGAAGCAGGUGCACCCUGAAGACCACAAGUUAAAUAAAUACCAUGACUGGCUUUGGGAGAAUCAUGAAAAAUUAAGUCUAUCUUGAAGCUGCCUGUU	1.14
GGUAUCCACCUUCAUGAUUUUAACUGACCCAUAACAAUGUUGUCAGCAGUAUAGGACUGUUGAACAGCCUGGUGUGUCAGGACCCCCAAAUGUCACUUCUGCCUAAAGCA	1.26
UUUUGCUCCAGCCACUUUUCUUGUACAACCACAUGGAUGGAUUAGAUGUCCUCAGGUCUUUUCCAUCUUCAGUUUCUAUGACUGUGGAAUAAAUGUUCAGAUAGAAACUU	0.485
UUUAAAGUUCCAGAAUAAUCUCCUUUGACUCCAGGUCUCACAUCCAGGUCAUACUGAUGCAAGAAGUGGGUUCCCAUGGUCUUGGGCAGCUCUGCCCCUGUGGCUUUGUA	0.257
AGGGAAUAGUUUAUAUGGACCUUUUUGUCAACAAUAAGCUAUUGUAAAGAUAUUUAAUGUUCUGUUUAUUUAAUUGCUUCUUAAAUUGAUAUGAUUUUCUUAUAAAACAG	0.499
CUAAUUGUGUUUGUCCGUCCAUGCCAUGAAUGAGUGGGCUGUAGUUGGGCCUAAAUAAAUGAGCUGUUGGAAGAAAAGAAUCACAGUACUUUCCAGCAGUCAGUCCCUGG	0.623
GAGGUUUGGUCUUCUGGGUGGUGUCCGUUUCCCCUCACUGUCAGGGAAAGCUGGAUCCCUCUGGCUGACUUAGAGUACUGUGACUUGGGCAUUGCUAAUGCCAGCGUGGG	0.34

Study 6 — technique: protein-binding microarray; molecule type: double-stranded DNA, one strand shown; sample: in vitro; tested at: not given; reading: higher = stronger binding
Target: Protein C-ets-1 (ETS1, Homo sapiens, UniProt P14921, residues 1-441, full length assumed)
Notes: k-mer, scored over probes, only values ≥0.25
Target sequence (chain): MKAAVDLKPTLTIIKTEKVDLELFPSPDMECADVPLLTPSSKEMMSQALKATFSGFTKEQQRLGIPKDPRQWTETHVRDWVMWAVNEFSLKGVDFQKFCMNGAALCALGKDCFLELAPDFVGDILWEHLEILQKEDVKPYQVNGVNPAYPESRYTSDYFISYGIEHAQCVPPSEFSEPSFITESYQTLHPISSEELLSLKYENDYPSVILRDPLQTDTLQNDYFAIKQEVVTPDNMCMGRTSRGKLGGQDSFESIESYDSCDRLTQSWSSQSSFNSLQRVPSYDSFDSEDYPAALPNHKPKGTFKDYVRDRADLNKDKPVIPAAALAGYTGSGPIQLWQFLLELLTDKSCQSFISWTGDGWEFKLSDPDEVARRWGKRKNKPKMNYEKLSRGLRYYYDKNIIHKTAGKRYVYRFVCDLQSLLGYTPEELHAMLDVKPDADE
Strand	E-score
CGCCGGAC	0.343
AGGATATG	0.409
CGGATGCA	0.468
CGGAAGCA	0.478
CGGAACGC	0.277
CACGGAAG	0.433
ATTTCCGG	0.497
CCGGACGA	0.404
AGCAGGAT	0.302
CATCCGAC	0.4
CGAGCGGA	0.332
CGGAACCC	0.347
GAGGATGA	0.259
CATCCTGG	0.438
CCGGATTC	0.422
CCACATCC	0.448
CGTCCGCC	0.449
ACCGTCCG	0.27
GCAGGGAA	0.263
CGAACGGA	0.337

For quick reference, copied from above (study 5):
Strand	RBNS enrichment (R)
UUUUGCUCCAGCCACUUUUCUUGUACAACCACAUGGAUGGAUUAGAUGUCCUCAGGUCUUUUCCAUCUUCAGUUUCUAUGACUGUGGAAUAAAUGUUCAGAUAGAAACUU	0.485
UUUAAAGUUCCAGAAUAAUCUCCUUUGACUCCAGGUCUCACAUCCAGGUCAUACUGAUGCAAGAAGUGGGUUCCCAUGGUCUUGGGCAGCUCUGCCCCUGUGGCUUUGUA	0.257
CUAAUUGUGUUUGUCCGUCCAUGCCAUGAAUGAGUGGGCUGUAGUUGGGCCUAAAUAAAUGAGCUGUUGGAAGAAAAGAAUCACAGUACUUUCCAGCAGUCAGUCCCUGG	0.623
GAGGUUUGGUCUUCUGGGUGGUGUCCGUUUCCCCUCACUGUCAGGGAAAGCUGGAUCCCUCUGGCUGACUUAGAGUACUGUGACUUGGGCAUUGCUAAUGCCAGCGUGGG	0.34
GGUAUCCACCUUCAUGAUUUUAACUGACCCAUAACAAUGUUGUCAGCAGUAUAGGACUGUUGAACAGCCUGGUGUGUCAGGACCCCCAAAUGUCACUUCUGCCUAAAGCA	1.26
AGGGAAUAGUUUAUAUGGACCUUUUUGUCAACAAUAAGCUAUUGUAAAGAUAUUUAAUGUUCUGUUUAUUUAAUUGCUUCUUAAAUUGAUAUGAUUUUCUUAUAAAACAG	0.499
UGUGUCAAUGAAUGGAAGCAGGUGCACCCUGAAGACCACAAGUUAAAUAAAUACCAUGACUGGCUUUGGGAGAAUCAUGAAAAAUUAAGUCUAUCUUGAAGCUGCCUGUU	1.14
